Published values gathered from unrelated publications.
Compare with care: the assays were run in different laboratories. “And” joins repeats or separate records; there may be more than shown. ± gives the spread as reported.

O=C1Nc2cc3[nH]nc(-c4ccncc4)c3cc2CN1Cc1ccccc1  patients with vitreous floaters (CTCAE v4.03; human, relapsed or refractory advanced solid tumours; intravenous, 6.4 mg/kg): 0%
CN[C@@H](C)C(=O)N[C@H]1CN(S(=O)(=O)c2cccc(S(=O)(=O)N3CC[C@H]4CC[C@@H](C(=O)NC(c5ccccc5)c5ccccc5)N4C(=O)[C@@H](NC(=O)[C@H](C)NC)C3)c2)CC[C@H]2CC[C@@H](C(=O)NC(c3ccccc3)c3ccccc3)N2C1=O  treatment-related ALT elevation incidence (patients with advanced solid tumours; 45 mg, phase I monotherapy): 20%
CO[C@H]1C[C@@H]2CC[C@@H](C)[C@@](O)(O2)C(=O)C(=O)N2CCCC[C@H]2C(=O)O[C@H]([C@H](C)C[C@@H]2CC[C@@H](OC(=O)NCCOCCOCCOCCOCCOCCOCCOCCOCCC(=O)N3CCc4cc(Cn5nc(-c6ccc7oc(N)nc7c6)c6c(N)ncnc65)ccc4C3)[C@H](OC)C2)C[C@@H](O)[C@H](C)/C=C(\C)[C@@H](O)[C@@H](OC)C(=O)[C@H](C)C[C@H](C)/C=C/C=C/C=C/1C  deaths due to TEAEs (phase 1 dose escalation; advanced solid tumour patients; intravenous, 16 mg weekly, grade ≥3): 0%
CC(C)Nc1ccnc(Nc2cccc(-c3cccnc3)c2)n1  blood chemistry (item: amylase; mouse, blood; intraperitoneal, 3 mg/kg): 2330 U/L
O=S(=O)(Nc1ccccc1)c1ccc(NC(=S)Nc2ccccc2)cc1  blood cell fraction (item: LY%; male mouse, blood; oral, 5 mg/kg daily, 14 days): 76.5%
CC[C@H](C)[C@H](NC(=O)[C@H](Cc1ccccc1)NC(=O)[C@H](CCC(=O)O)NC(=O)[C@H](CCCNC(=N)N)NC(=O)[C@H](C)NC(=O)[C@H](C)NC(=O)[C@H](CCC(N)=O)NC(=O)[C@H](CCC(=O)O)NC(=O)[C@H](CCC(=O)O)NC(=O)[C@H](CC(C)C)NC(=O)[C@H](Cc1ccc(O)cc1)NC(=O)[C@H](CO)NC(=O)[C@H](CO)NC(=O)[C@@H](NC(=O)[C@H](CC(=O)O)NC(=O)[C@H](CO)NC(=O)[C@@H](NC(=O)[C@H](Cc1ccccc1)NC(=O)[C@@H](NC(=O)CNC(=O)[C@H](CCC(=O)O)NC(=O)[C@H](C)NC(=O)CCc1cnc[nH]1)[C@@H](C)O)[C@@H](C)O)C(C)C)C(=O)N[C@@H](C)C(=O)N[C@@H](Cc1c[nH]c2ccccc12)C(=O)N[C@@H](CC(C)C)C(=O)N[C@H](C(=O)N[C@@H](CCCNC(=N)N)C(=O)NCC(=O)N[C@@H](CCCNC(=N)N)C(=O)N[C@@H](CCCCNC(=O)COCCOCCNC(=O)COCCOCCNC(=O)CC[C@H](NC(=O)CCCCCCCCCCCCCCCCC(=O)O)C(=O)O)C(=O)NCC(=O)NCC(=O)N[C@@H](CO)C(=O)N[C@@H](CCCCNC(=O)[C@H](CCCCNc1c(NCCCCCN(O)C(=O)CCC(=O)NCCCCCN(O)C(=O)CCC(=O)NCCCCCN(O)C(C)=O)c(=O)c1=O)Nc1c(NCCCCCN(O)C(=O)CCC(=O)NCCCCCN(O)C(=O)CCC(=O)NCCCCCN(O)C(C)=O)c(=O)c1=O)C(=O)O)C(C)C [zirconium-89 labelled]  tissue uptake (ex vivo gamma counting; male Sprague-Dawley rats, brain; intravenous, 1 nmol, 24 h): 0.019 %ID/g
COc1c(C)cnc(Cn2cc(C#CCCOP(=O)(O)O)c3c(Cl)nc(N)nc32)c1C  maximum tolerated dose (human, advanced solid tumours; intravenous infusion, twice weekly, 21-day cycles): 144 mg/m²
CNC(=O)C(CCN1CCC(O)(c2ccc(Cl)cc2)CC1)(c1ccccc1)c1ccccc1  unbound fraction in cells (ultrafiltration; dog, cell homogenate; 1 µM): 0.029
CC(C)[C@@H]1NC(=O)CNC(=O)[C@H](CC(N)=O)NC(=O)[C@H](CCCNC(=N)N)NC(=O)[C@H](Cc2ccc(O)cc2)NC(=O)[C@H](C(C)C)NC(=O)[C@@H](NC(=O)[C@@H](NC(=O)[C@H](CC(N)=O)NC(=O)[C@H](Cc2c[nH]c3ccccc23)NC(=O)[C@H](C)NC(=O)[C@H](Cc2ccccc2)NC(=O)CN)C(C)C)CSSC[C@@H](C(=O)N[C@@H](Cc2cnc[nH]2)C(=O)N[C@@H](CCCNC(=N)N)C(=O)N[C@@H](CCCNC(=N)N)C(=O)N[C@@H](C)C(=O)N[C@@H](CC(N)=O)C(N)=O)NC(=O)[C@H](C(C)C)NC(=O)[C@H](CCCNC(=N)N)NC1=O  phosphorus (ICR mice, serum; intraductal mammary, 10 mg/kg, day 5): 3.24 ± 0.07 mmol/L
NCCCC[C@@H]1NC(=O)[C@@H](Cc2c[nH]c3ccccc23)NC(=O)[C@H](c2ccccc2)NC(=O)[C@@H]2C[C@@H](OC(=O)NCCN)CN2C(=O)[C@H](Cc2ccccc2)NC(=O)[C@H](Cc2ccc(OCc3ccccc3)cc2)NC1=O  QTcI change from baseline (healthy volunteers; subcutaneous, 1950 µg twice daily, day 5, 0.50 h): -1.2 ms
N.N.[Cl][Pt][Cl]  uric acid (mouse, serum; dose not given): 7.8 mg/dL and 4.6 mg/dL and 4 mg/dL
[O-][S+]1CCc2nc(N3CCC(c4ncc(Cl)cn4)CC3)nc(NC3(CO)CCC3)c21 (centres unmarked)  adverse event incidence (item: abdominal distension; healthy male humans; 12 mg twice daily): 0%
COc1ncccc1-c1cnn2ccc(N3CCN(C(=O)OC(C)C)CC3)nc12  free drug concentration (rat, CCI mechanical allodynia model, plasma; oral, 30 mg/kg, 240 min): 125 nM
Cc1cccc(Cn2nc(C3CC3)c3c(NC(=O)c4cnc5cc(OCCN6CCN(C)CC6)ccn45)cccc32)n1  adverse events incidence (item: Nausea; human advanced solid tumours; oral, dose not given, all-causality,, all doses): 26.3%

Excerpt of the above:
CC(C)[C@@H]1NC(=O)CNC(=O)[C@H](CC(N)=O)NC(=O)[C@H](CCCNC(=N)N)NC(=O)[C@H](Cc2ccc(O)cc2)NC(=O)[C@H](C(C)C)NC(=O)[C@@H](NC(=O)[C@@H](NC(=O)[C@H](CC(N)=O)NC(=O)[C@H](Cc2c[nH]c3ccccc23)NC(=O)[C@H](C)NC(=O)[C@H](Cc2ccccc2)NC(=O)CN)C(C)C)CSSC[C@@H](C(=O)N[C@@H](Cc2cnc[nH]2)C(=O)N[C@@H](CCCNC(=N)N)C(=O)N[C@@H](CCCNC(=N)N)C(=O)N[C@@H](C)C(=O)N[C@@H](CC(N)=O)C(N)=O)NC(=O)[C@H](C(C)C)NC(=O)[C@H](CCCNC(=N)N)NC1=O  phosphorus (ICR mice, serum; intraductal mammary, 10 mg/kg, day 5): 3.24 ± 0.07 mmol/L
